Measured values gathered from unrelated publications.
Each numbered part is a random draw from the data of one study; scales do not carry over between parts.
Sequence of UniProt O95747 (whole entry, looked up): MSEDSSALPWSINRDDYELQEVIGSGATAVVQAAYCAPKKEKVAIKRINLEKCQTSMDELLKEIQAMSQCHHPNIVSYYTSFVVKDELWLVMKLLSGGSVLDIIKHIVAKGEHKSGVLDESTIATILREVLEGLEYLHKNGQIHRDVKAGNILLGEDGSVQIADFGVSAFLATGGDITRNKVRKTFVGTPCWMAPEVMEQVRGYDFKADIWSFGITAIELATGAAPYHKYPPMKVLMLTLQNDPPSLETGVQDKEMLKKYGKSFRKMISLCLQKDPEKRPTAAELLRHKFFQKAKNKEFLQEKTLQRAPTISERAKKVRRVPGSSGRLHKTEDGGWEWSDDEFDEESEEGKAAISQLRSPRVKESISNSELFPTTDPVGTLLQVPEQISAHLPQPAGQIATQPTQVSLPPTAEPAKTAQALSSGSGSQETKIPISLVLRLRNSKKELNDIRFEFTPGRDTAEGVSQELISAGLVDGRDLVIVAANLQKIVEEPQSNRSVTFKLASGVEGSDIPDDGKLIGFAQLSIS
Sequence of UniProt Q96PN8 (whole entry, looked up): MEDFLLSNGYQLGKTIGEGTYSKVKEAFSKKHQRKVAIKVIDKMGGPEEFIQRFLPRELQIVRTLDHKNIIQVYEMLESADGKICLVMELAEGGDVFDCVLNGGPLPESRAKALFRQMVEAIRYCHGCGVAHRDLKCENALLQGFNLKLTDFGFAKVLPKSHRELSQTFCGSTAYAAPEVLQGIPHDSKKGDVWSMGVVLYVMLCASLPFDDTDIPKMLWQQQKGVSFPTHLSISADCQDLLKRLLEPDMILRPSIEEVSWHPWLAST
Sequence of UniProt Q8IY84 (whole entry, looked up): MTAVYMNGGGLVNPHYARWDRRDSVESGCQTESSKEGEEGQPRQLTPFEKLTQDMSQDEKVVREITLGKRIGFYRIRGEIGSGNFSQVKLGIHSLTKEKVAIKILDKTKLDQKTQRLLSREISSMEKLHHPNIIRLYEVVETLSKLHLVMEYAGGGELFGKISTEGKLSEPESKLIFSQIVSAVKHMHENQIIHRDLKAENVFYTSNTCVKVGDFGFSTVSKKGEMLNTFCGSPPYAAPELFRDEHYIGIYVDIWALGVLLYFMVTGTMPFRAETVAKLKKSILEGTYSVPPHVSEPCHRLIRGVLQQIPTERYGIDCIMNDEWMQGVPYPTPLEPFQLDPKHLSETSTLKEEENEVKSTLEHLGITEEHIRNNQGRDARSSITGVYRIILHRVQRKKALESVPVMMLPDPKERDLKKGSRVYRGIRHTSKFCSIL

Study 1
Target: Interleukin-1 receptor-associated kinase 4 (IRAK4, Homo sapiens, UniProt Q9NWZ3)
Sequence of UniProt Q9NWZ3 (whole entry, looked up): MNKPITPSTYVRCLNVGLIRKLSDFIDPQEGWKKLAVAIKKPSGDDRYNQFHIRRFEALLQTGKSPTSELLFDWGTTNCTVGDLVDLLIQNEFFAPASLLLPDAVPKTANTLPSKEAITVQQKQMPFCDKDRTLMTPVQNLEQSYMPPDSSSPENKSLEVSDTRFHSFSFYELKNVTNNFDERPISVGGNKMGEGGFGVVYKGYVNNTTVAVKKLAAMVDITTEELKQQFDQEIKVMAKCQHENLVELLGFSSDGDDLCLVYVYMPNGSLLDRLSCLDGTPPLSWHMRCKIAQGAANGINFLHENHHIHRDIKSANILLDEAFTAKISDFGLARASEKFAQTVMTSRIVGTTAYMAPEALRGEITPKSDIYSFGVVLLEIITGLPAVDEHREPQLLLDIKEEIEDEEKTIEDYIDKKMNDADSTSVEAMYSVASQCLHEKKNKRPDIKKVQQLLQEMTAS
Observed: enzyme activity
Mode: inhibitor
Concentration: 0.5 µM
Baseline: control
`CCOC(=O)c1c(C)[nH]c(/C=C2\C(=O)Nc3ccccc32)c1C` has a remaining activity of 96.8%.
For `Cn1c2ccccc2c2c3c(c4c5ccccc5n(CCC#N)c4c21)CNC3=O`, the remaining activity was 63.5%.
`O=C(O)c1ccc2c3c1cccc3c(=O)n1c3ccccc3nc21` has a remaining activity of 107%.
The remaining activity of `O=C(Nc1cccc(Nc2cc(Nc3cccc(C(F)(F)F)c3)ncn2)c1)C1CC1` is reported as 104%.
With `COc1ccc(C(=O)Nc2sc3c(c2C(N)=O)CCCC3)cc1OC` the remaining activity was 94.8%.
`COc1cc2ncnc(Nc3ccc(Oc4ccccc4)cc3)c2cc1OC` gave a remaining activity of 112%.
For `Cc1cccc(-c2[nH]c(C(C)(C)C)nc2-c2ccc3c(c2)OCO3)n1`, the remaining activity was 86.8%.
For `COc1cc2nccc(Oc3ccc(NC(=S)NC(=O)c4ccccc4C)cc3)c2cc1OC`, the remaining activity was 82.4%.
The remaining activity of `Nc1[nH]nc2nc3ccccc3nc12` is reported as 94.7%.
With `O=S(=O)(c1cccc2cnccc12)N1CCCNCC1` the remaining activity was 108%.
With `COc1cc2ncnc(Nc3ccc(F)c(Cl)c3)c2cc1OCCCN1CCOCC1` the remaining activity was 78.8%.
`O=c1c2ccccc2[nH]c(=S)n1CCN1CCC(=C(c2ccc(F)cc2)c2ccc(F)cc2)CC1` has a remaining activity of 105%.
The remaining activity of `O=C(CCCc1ccc(-c2ccccc2F)cc1)Nc1ccc(O)cc1` is reported as 86.3%.

Study 2
Target: RNA binding protein fox-1 homolog 2, RRM domain, GST-SBP tag (RBFOX2, Homo sapiens, UniProt O43251-10, residues 100-194)
Method: RNA Bind-n-Seq
Molecule type: RNA
Medium: in vitro
Concentration: 365 nM
Notes: natural RNA segment, single round, ends assumed
Baseline: no-protein control
Reading: higher = stronger binding
Constant ends, left off below: GGGAGUUCUACAGUCCGACGAUC … UGGAAUUCUCGGGUGCCAA
Residues (chain): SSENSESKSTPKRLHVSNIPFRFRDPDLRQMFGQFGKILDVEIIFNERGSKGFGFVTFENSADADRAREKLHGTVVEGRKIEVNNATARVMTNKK
`CCACUUUGGUGGCUGUUGUUGCAGAAGACUAAACUGCUUUGGACUAUUUAACGAUUGCCUGACAGUCGAGUGUUUCCAAUGUGGUCGUCCAGUUUCUAUGGCCUUGCUGU` — result for “RBNS enrichment (R)”: 0.181.
`UUAAUCCCCAGGUGUGUUAGUCCCAGCCUAGUUUGGUGCUCGAGGUGAGAGGGGAUUUGAAUCUGUUUGCAAAUUGUCCAACCCACCAGGUCAACGUGAGGGGCUUACAU`: “RBNS enrichment (R)” 0.434.
`UGAACAUCUCCUUUCUCUUCUUGCUUCAAUUGCUUACCCACUGCCUGCCCAGACUUUCUAUCCAGCCUCACUGAGCUGCCCACUACUGGAAGGGAACUGGGCCUCGGUGG` — result for “RBNS enrichment (R)”: 0.818.
`CACACACGCACACACAGACCCACAGCUUUGAAUGAUCAUGUUGUGGCUGAGCAGCCGCUUUUUAGACGUUAUCAUUUUGCCUCAUGUUGGAGGACUUUAUGGAAUUUAAG` — result for “RBNS enrichment (R)”: 0.736.
Under “RBNS enrichment (R)”, `CCACCCCCUUCCCCUACUCUAGGGGAGAGAGCUGCUAGUGAGAUGACUGUUUUAUAAAGAAAUGGAAAAAAGUGAAAUAAAAAAUAUGUUGAAUCAGAUUUUUUAAAAGG` is recorded as 0.799.
For `CUCUGUGUGUGUCGUCCCUCAUCCCGUGUAAAUAUCACCAUCCUUGUGACACUGGCACUAAGCAAUGUGUGCUCUGCCCAGCACACCUGGACAUGUUCUCUCGGCUGGCU`, “RBNS enrichment (R)” read 0.548.
Under “RBNS enrichment (R)”, `UUCUGCCUGGACAUCAUAAAUGGGGACUUGGACCCUGAGGAGAGUCAGGCCACGGUAAGCCCUUCCCAGCUGAGAUAUGGGUGGCAUAAUUUGAGUCUUCUGGCAACAUU` is recorded as 1.02.
Under “RBNS enrichment (R)”, `GCCUCCAGCCAGGGCCCUCUAGGGGAACCAAGCCUCUGCUCUCACCUGUGGGUUCUUGCCCAUCAGGGUAAUUGUAUUGAGAACUCAAAUAUACGUGCACUUACAUGUGU` is recorded as 0.218.

Study 3
Target: RING finger protein unkempt homolog, zinc fingers 1-6, GST-SBP tag (UNK, Homo sapiens, UniProt Q9C0B0, residues 30-357)
Sequence of UniProt Q9C0B0 (30-357, looked up): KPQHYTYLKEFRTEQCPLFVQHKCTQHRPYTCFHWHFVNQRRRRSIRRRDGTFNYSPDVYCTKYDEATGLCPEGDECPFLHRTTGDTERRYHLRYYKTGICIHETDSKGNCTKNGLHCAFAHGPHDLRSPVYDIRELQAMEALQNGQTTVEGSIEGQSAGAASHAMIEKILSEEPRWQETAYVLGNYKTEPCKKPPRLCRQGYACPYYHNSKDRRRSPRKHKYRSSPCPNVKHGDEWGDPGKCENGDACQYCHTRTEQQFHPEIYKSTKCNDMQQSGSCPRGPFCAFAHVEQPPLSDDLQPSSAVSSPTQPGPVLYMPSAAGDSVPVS
Method: RNA Bind-n-Seq
Molecule type: RNA
Medium: in vitro
Concentration: not given
Notes: RNA with constant flanks, human and mouse sites, ends assumed
Baseline: input RNA pool
Reading: higher = stronger binding
Constant ends, left off below: GGGAGUUCUACAGUCCGACGAUC … CAACAGAGGAUUGAGCAUCA
`CUAGAGAUUUACUACAUCCGUCCUUGGAAGAGGAAAAGAAAAAACAUAAAAAGAAACGCCUAGUACAAAGUCCAAAUUCUUACUUUAUGGAUGUAAAAUGUCCAGGUUGCUACAAGAUCA` gave a bound/input enrichment of 0.516 ratio.
For `UCCCCUUCUUUCUCUGCUGAUUUUGCACUUUUCUCUUUGCUCACCACCAAGUGUAAUCAAUAGCAAAGCACUGACAGUUCAUAGCAGUAGUGAAAUCUGAAAUAACUAAGAAUUAAUCAG`, the bound/input enrichment was 0.138 ratio.
`CUUGGACAGGAGAGGGCACUGGAACAGAUUUUGGAAUAUGAACUACUACUUAUACAACAACUUAAUUUUCACCUUAUUGUCCACAAUCCAUACAGACCAUUUGAAGGCUUCCUCAUCGAU` gave a bound/input enrichment of 1.48 ratio.
With `GGAUUGACCUAGUCUUGCUCCGACCUCAUAAACAAUCCACUCUGUAUUGUGCCCUGUCAAACUAGUGUGUGUGGUGUUAAUGAUGCUGGGAUUUUAUUUAUUGUAAAGCAAUGAGUCUGG` the bound/input enrichment was 0.515 ratio.
The bound/input enrichment of `GACUCUCAGUUUAACAUUAUGUCUGUUAAAACUCUGACAAGCAUUCCGAUUUUGUUAUUUAUUAGCAGUGUCAAGUCUUGUGACUAUUAAAAGAACCACUGUAAUUCAAAACAUCAGCGU` is reported as 0.151 ratio.
For `AUGACCCUUGGACAGCAGGACGUUUCCAAAGUCCUGCUGGGACCACUCUCACCCUACACGAUAGAAUUUUUGCGGCAUCUGAAGAGCUUUUUCCAGGUUAUGUUUAAAGUUGAAACCAAG`, the bound/input enrichment was 1.82 ratio.
The bound/input enrichment of `GGAGUUUUGAUUCUUUUAUAUGUUUUUAAAAAAAAGCUUAAGAAACAUUGCUUUAAAAAGGAAGGAAAAAAAAUACAGCAAACCAUUGUUAAAGUAGAAGAGUUUUUAGGUUGAGAAAUG` is reported as 3.93 ratio.
For `GAGUGGCCCCUGCUAGAUUCUUCCCAGAGAAAACUGUACAAAGAUGUAAUGCUGGAGAAUUAUAGCAAUCUAAGUUCACUGGGUUAUCAGGUUGGCAAACCCCGCCUCAUCUCACACCUA`, the bound/input enrichment was 0.189 ratio.

Study 4
Structure (SMILES): O=C(Nc1cccnn1)N1CC(C/C=C/c2cncc(Oc3ccc(C(F)(F)F)cn3)n2)C1
Observed: cell-free assay
Method: competition with immobilised ligand
Concentration: 1 µM
For OXSR1 (Homo sapiens, UniProt O95747): remaining binding read 71%.
It gave 76% for remaining binding (NIM1K (Homo sapiens, UniProt Q8IY84)).
The remaining binding was 98% (TSSK3 (Homo sapiens, UniProt Q96PN8)).

A few entries again (study 1):
`CCOC(=O)c1c(C)[nH]c(/C=C2\C(=O)Nc3ccccc32)c1C` has a remaining activity of 96.8%.
For `COc1cc2nccc(Oc3ccc(NC(=S)NC(=O)c4ccccc4C)cc3)c2cc1OC`, the remaining activity was 82.4%.
`COc1cc2ncnc(Nc3ccc(Oc4ccccc4)cc3)c2cc1OC` gave a remaining activity of 112%.
With `COc1ccc(C(=O)Nc2sc3c(c2C(N)=O)CCCC3)cc1OC` the remaining activity was 94.8%.
